{"data": "Experimental data of several laboratories", "note": "Every numbered part comes from another study and shows a few of its results, in no order."}
{"data": "Study 1", "target": "RING finger protein unkempt homolog, zinc fingers 1-6, GST-SBP tag (UNK, Homo sapiens, UniProt Q9C0B0, residues 30-357)", "technique": "RNA Bind-n-Seq", "molecule type": "RNA", "matrix": "in vitro", "tested at": "not given", "setting": "RNA with constant flanks, human-mouse chimeric sites, ends assumed", "baseline": "input RNA pool", "reading": "higher = stronger binding", "sequence of UniProt Q9C0B0 (30-357, looked up)": "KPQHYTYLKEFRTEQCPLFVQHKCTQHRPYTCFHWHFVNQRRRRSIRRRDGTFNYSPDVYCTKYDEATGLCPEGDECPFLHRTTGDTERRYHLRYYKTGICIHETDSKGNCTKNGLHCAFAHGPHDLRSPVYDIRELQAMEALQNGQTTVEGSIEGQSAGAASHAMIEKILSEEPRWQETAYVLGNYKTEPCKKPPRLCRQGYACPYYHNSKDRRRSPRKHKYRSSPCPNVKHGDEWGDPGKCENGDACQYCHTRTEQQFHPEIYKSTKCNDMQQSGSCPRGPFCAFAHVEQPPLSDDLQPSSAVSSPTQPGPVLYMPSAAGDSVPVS"}
{"Sequence": "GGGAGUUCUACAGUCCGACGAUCAUAGAUGAAAUUGAUGUAGAUCAGGAAGGAAUUGCUGAAAUGAUCCUGGAUGAAAAUGCUAUUGCUCAGGUCCCACGCCCUGGAACGUCUUUGAAGCUCCCUGGCACUAACCAAACAGGACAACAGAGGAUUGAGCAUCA", "bound/input enrichment [ratio]": 0.556}
{"Sequence": "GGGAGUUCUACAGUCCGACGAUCCCCACGCCUCCUCUCCCCCAGGCCCGAGAUAUAACCCACCAGUGCCUUUUGUCUUCCUGUCAGCUCUGUCAAUCACGCCUGUCCUCUCACGCCCACACCAAGUGCCCAAAGUGGGGAGGGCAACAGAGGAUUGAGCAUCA", "bound/input enrichment [ratio]": 1.35}
{"Sequence": "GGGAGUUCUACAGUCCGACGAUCCUGGCCUGGCCCUCCCCAGGGGCCUCCUUUCGUAUAGUCACUGCUUCUGCAUCAGAUAUUUUUAGCUGCAACUCCCUACUGGGUGGGGCACCUAUCUCAGGCAGAAGGUUUUGGUACCCUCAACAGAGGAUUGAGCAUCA", "bound/input enrichment [ratio]": 0.305}
{"Sequence": "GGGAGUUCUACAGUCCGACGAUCAAAUCGUGUGUGUCCAAUAUUGAAAGUGCUUUAUCUACACUCCAGUAUGUAAGCAGUAUAGUAGUUUCUUUAGAGAAUAGGUCAGCCAUUGUAAAGUAUAAUGCAAGCUUAGUCACUCCACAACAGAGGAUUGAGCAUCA", "bound/input enrichment [ratio]": 9.21}
{"Sequence": "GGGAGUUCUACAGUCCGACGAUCGGAAGUACAAUGAUGGAGAUUGAUGGUGAUAAAGGCAAACAAGGCGGGCCCACCUACUACAUAGACACCAAUGCCCUCCGCGUGCCCAGGGAGAACAUGGAGGCCAUCUCACCACUCAAGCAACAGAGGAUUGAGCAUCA", "bound/input enrichment [ratio]": 0.236}
{"Sequence": "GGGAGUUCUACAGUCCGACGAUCUGUAACUCUUAUCUGUAAGGUUCCCCCCCCCUACUGUCAAAAAAUAUGCAUGUAUAGUAAUUAGGACUUCAUUCCUCCAUGUUUUCUUCCCUUAUCUUACUGUCAUUGUCCUUAAACCUUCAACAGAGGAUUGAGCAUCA", "bound/input enrichment [ratio]": 3.42}
{"Sequence": "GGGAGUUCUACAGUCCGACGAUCAUCAAAUACUUUGGGGACAUCAUUAGUGUGGGACAGAGAUUGUUGCAAGGGGCCCGGAUCUUAGGGAUUCCAGUUAUCAUAACGGAACAAUACCCCAAAGGACUUGGCAGCACCGUUCAACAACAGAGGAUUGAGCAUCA", "bound/input enrichment [ratio]": 0.294}
{"Sequence": "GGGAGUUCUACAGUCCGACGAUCGAGCCCAGCCGGCAGUUUGUAAAGGACUCAAUUCGGCUGGUUAAAAGAUGCACCAAACCCGACAGAAAAGAAUUCCAGAAGAUUGCCAUGGCUACAGCAAUAGGAUUUGCUAUCAUGGGACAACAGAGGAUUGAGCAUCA", "bound/input enrichment [ratio]": 0.128}
{"Sequence": "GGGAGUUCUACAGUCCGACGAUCACCAUUUCUGAAUACACGGCUUUGUGUGUAGUUCACUUACGGUAUUAAAUUAUUAUUCUGCUUAGCUUAUAAUAAGGAUUACAAUUGUUAAAGAGGUUACUGAAUGUUACUCUGAAACUUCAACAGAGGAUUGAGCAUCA", "bound/input enrichment [ratio]": 0.509}
{"Sequence": "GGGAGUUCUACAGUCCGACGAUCACCUCCCCCUCCCGCCUCACCCCACCCCCGCUUUUUGGAAAGUUUUUGGCGUUUCUUUUUUUUAGAAAUACAAAGUGAUUACAGUUUCCCCCGCAAGUGGGGCUUGAAGGGCUUGACGGACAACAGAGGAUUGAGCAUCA", "bound/input enrichment [ratio]": 0.661}
{"Sequence": "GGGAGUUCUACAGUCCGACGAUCUCGGAUGCUGUGCUGGGUCACUUUUCAUAUCCAGAUCCUUCCCAGUGGACAGAUGAAGAACUGGGAAUCCCUCCUGAUGACGAGGACUGACACUGUAAACUCUCUGGACGAGUAGGAGCACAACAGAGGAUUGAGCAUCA", "bound/input enrichment [ratio]": 0.697}
{"data": "Study 2", "target": "RNA binding protein fox-1 homolog 2, RRM domain, GST-SBP tag (RBFOX2, Homo sapiens, UniProt O43251-10, residues 100-194)", "technique": "RNA Bind-n-Seq", "molecule type": "RNA", "matrix": "in vitro", "tested at": "365 nM", "setting": "natural RNA segment, single round, ends assumed", "baseline": "no-protein control", "reading": "higher = stronger binding"}
{"Sequence": "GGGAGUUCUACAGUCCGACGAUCAAUGCUAAUAUUAAAAGUCACAAUGUUCUUUAUAUACAAUAAUGGAAAAAAAAAAAAGAGGAAAACCCUCAAGGGCAUGAGCAUUGGAUACAGCAGUAGACAUUUUAACAUGGAAUUCUCGGGUGCCAA", "RBNS enrichment (R)": 0.667}
{"Sequence": "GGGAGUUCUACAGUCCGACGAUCUUUACCAACCCAAAUAUAUCAAAACGUUUUAUGUGAAUGUGGCAAUAAAGGAGAAGAGAUCAUUUUUAAAAACCGUGUUGCUCAGACAUUGCUCUCACGUGGCUCAGGCUUGGAAUUCUCGGGUGCCAA", "RBNS enrichment (R)": 0.445}
{"Sequence": "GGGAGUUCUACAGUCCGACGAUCCCAGUAAUGGAAGUGUUAAUUUUACUGUACUUUUUGGUACCUUUUGGGAAUCUAAUGUAUUGUAAGGUAUUUUACACGUGUCCUGAUUUUGCCACGACCUGGAUAUUGAAUGGAAUUCUCGGGUGCCAA", "RBNS enrichment (R)": 0.379}
{"Sequence": "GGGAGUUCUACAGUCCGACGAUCUAUGCAGGCGUGGUGUUGGCAGCCUCACUGUAGAGCAGGGUGCACGGGUCUGUAGUUGAGGACGAGAUUGAGAGCUGUUAAUCCACCAAAUGCAAUGGCUCAGAACAAUUUGGAAUUCUCGGGUGCCAA", "RBNS enrichment (R)": 1}
{"Sequence": "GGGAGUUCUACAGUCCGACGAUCAGUUAGCAUUUAUUGUUUUGAUGAAACGUGACACAUCAUGGGAUAUAUAUAUAUAUAUAAAGAACUUAAUUCUUGUGGUGCAGUCUUGAUAGUUUUGAAUGUUGCUUAAAUGGAAUUCUCGGGUGCCAA", "RBNS enrichment (R)": 1.43}
{"Sequence": "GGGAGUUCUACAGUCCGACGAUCUCUUAAUUCUUGGGGAGGUUACUAAUAGCAGUAGGAUAGAAUUUUAUGAGGUUACCUACAACUACUUAAUGUACUUACACUGUAAGCCUUGUUGCUUUACCCAAGACAAAUGGAAUUCUCGGGUGCCAA", "RBNS enrichment (R)": 0.437}
{"Sequence": "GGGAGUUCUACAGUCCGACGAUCGAUAAACAACAAGGUGGUGUGAUCUUAAUAUAUUUGAAAAAAACUUCAUUCUCGUGAGUCAUUUAAAUGUGUACAAUGUACACACUGGUACUUAGAGUUUCUGUUUGAUUUGGAAUUCUCGGGUGCCAA", "RBNS enrichment (R)": 0.625}
{"Sequence": "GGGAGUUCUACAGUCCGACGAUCCUUUCAGUGAAGAAUCCUCUAAGAUAAAACUUCUAUUUAAAGACUUUAACUAGAAAGUGUUUAUUUUGGCUACAUUGUUCACCUUCUGCUGUAUUGGUAUUUGUCUGUUGUGGAAUUCUCGGGUGCCAA", "RBNS enrichment (R)": 0.486}
{"Sequence": "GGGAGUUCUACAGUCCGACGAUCUGGAGGCUUGCCAGAGAAGGUGGAGAAUGAAGUAGAACUCAGCUUCCCUCUCAGAGCCUGUGCCCGAAUCUUUAAUGUUCUCUGGGUGAAAGGUCCUGGGGAGAGCUUCGUGGAAUUCUCGGGUGCCAA", "RBNS enrichment (R)": 1.17}
{"data": "Study 3", "target": "Sal-like protein 4, full length isoform B (SALL4, Homo sapiens, UniProt Q9UJQ4-2, residues 1-616)", "technique": "universal PBM", "molecule type": "double-stranded DNA, one strand shown", "matrix": "in vitro", "tested at": "not given", "setting": "8-mer, flanks averaged, mean of replicates", "reading": "higher = stronger binding"}
{"Sequence": "AGAGCGCT", "E-score": -0.133}
{"Sequence": "CGTACGAC", "E-score": 0.0119}
{"Sequence": "CCGATCGA", "E-score": -0.115}
{"Sequence": "CGTCCTAG", "E-score": -0.108}
{"Sequence": "CCATGGGA", "E-score": -0.168}
{"Sequence": "GCTCCGCA", "E-score": -0.234}
{"Sequence": "GTACAAAA", "E-score": 0.289}
{"Sequence": "ATTGATGC", "E-score": 0.12}
{"Sequence": "ACTGCGTG", "E-score": -0.167}
{"Sequence": "AGCCAGAG", "E-score": -0.192}
{"Sequence": "CACTACTC", "E-score": -0.0565}
{"Sequence": "AGGGGGAG", "E-score": -0.157}
{"Sequence": "CATATGCA", "E-score": 0.183}
{"Sequence": "GTGCCTAA", "E-score": 0.0838}
{"Sequence": "TTATAGAA", "E-score": 0.308}
{"Sequence": "CGTTACAA", "E-score": 0.176}
{"Sequence": "AAGTTCCG", "E-score": -0.0279}
{"Sequence": "AGCCGCGC", "E-score": -0.296}
{"Sequence": "GTCCGATA", "E-score": 0.0209}
{"Sequence": "AACGAGTT", "E-score": -0.0144}
{"Sequence": "TCGACAGA", "E-score": 0.101}
{"Sequence": "ATGCCGCC", "E-score": -0.262}
{"Sequence": "TGAGCACA", "E-score": 0.00975}
{"data": "Study 4", "target": "Interferon regulatory factor 7, full length, phosphomimetic (IRF7, Homo sapiens, UniProt Q92985, residues 1-503, S101K/S471D/S472D/S475D/S476D/S477D/S483D/S484D/S487D)", "technique": "protein-binding microarray", "molecule type": "double-stranded DNA, one strand shown", "matrix": "in vitro", "tested at": "250 nM", "setting": "60-bp whole probe", "together with": "salmon DNA 0.4 mg/ml", "baseline": "random background probes", "reading": "higher = stronger binding", "shared flanks, not repeated": "GCCTAGCAC … GTCTTGATTCGCTTGACGCTGCTG", "sequence of UniProt Q92985 (whole entry, unmodified, looked up)": "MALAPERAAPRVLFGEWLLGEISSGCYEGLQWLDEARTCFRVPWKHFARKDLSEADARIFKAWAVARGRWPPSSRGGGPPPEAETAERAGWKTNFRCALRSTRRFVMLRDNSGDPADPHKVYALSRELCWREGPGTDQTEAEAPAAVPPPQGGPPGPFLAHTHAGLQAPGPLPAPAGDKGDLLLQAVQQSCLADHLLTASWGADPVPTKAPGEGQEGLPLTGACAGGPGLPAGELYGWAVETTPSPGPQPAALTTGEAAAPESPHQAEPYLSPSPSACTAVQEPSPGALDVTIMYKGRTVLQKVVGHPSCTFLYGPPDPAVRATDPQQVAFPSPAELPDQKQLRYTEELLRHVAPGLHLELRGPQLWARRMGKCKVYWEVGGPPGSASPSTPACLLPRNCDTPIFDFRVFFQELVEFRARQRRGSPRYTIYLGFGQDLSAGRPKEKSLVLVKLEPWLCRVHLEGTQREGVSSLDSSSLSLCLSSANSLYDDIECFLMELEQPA"}
{"Sequence": "CTTTGCCTCATCTTGCAGGTAGTGCTA", "log fluorescence [z-score]": 0.486}
{"Sequence": "TTAGATATCGGGTATCGATTTGTGCTA", "log fluorescence [z-score]": 2.85}
{"Sequence": "CCCTGCGTGGTCTCGAGCTGGTGCTAG", "log fluorescence [z-score]": -1.11}
{"Sequence": "CCTAATCTCAGCCTCCGTCAGTGCTAG", "log fluorescence [z-score]": 0.221}
{"Sequence": "GACGGACTGGGACTTGGGACGTGCTAG", "log fluorescence [z-score]": -0.747}
{"Sequence": "TCAGTAATCGAAATCTTACTGTGCTAG", "log fluorescence [z-score]": 0.304}
{"Sequence": "TTAGGTATCGACTATCGCTTAGTGCTA", "log fluorescence [z-score]": 0.311}
{"Sequence": "GACGAACTAAGACTGGAGACGTGCTAG", "log fluorescence [z-score]": 0.209}
{"Sequence": "GACGGACTGCTATTCCTGACGTGCTAG", "log fluorescence [z-score]": -0.218}
{"Sequence": "GACGGTTTCGGACTAGGGACGTGCTAG", "log fluorescence [z-score]": 3.98}
{"Sequence": "CCTAGTTTCATTCCTGATCTGTGCTAG", "log fluorescence [z-score]": 3.34}
{"Sequence": "ATTTGTCCCTATTTAAGAGAGTGCTAG", "log fluorescence [z-score]": 4.19}
{"Sequence": "TCATGTCTGTGTCACAGAGAGTGCTAG", "log fluorescence [z-score]": 0.0792}
{"Sequence": "GGCCAAACAGTATTAAACTCGTGCTAG", "log fluorescence [z-score]": -0.423}
{"Sequence": "TTACATTTCGGGTTTCGATTAGTGCTA", "log fluorescence [z-score]": 7.58}
{"Sequence": "TTTGGACTGGGGTATCGGTTAGTGCTA", "log fluorescence [z-score]": 0.245}
{"Sequence": "GACGGTATCGACACTGGTGACGTGCTA", "log fluorescence [z-score]": -0.263}
{"Sequence": "TAAGGACTGGACTATCGGTTAGTGCTA", "log fluorescence [z-score]": 0.013}
{"Sequence": "TTAGATTTCAGTTCGGATTAGTGCTAG", "log fluorescence [z-score]": 1.08}
{"Sequence": "TCAATAATTTTTTTCTAACTGTGCTAG", "log fluorescence [z-score]": 0.38}
{"Sequence": "TCACGTATCTTCATTGTACTGTGCTAG", "log fluorescence [z-score]": 0.562}
{"Sequence": "CTCTGTCCCTGTTTCTACTGGTGCTAG", "log fluorescence [z-score]": 2.04}
{"Sequence": "GACGGTTTCCTTTCCCTGGCGTGCTAG", "log fluorescence [z-score]": 4.94}
{"Sequence": "TCAATTTTTACATTATTACTGTGCTAG", "log fluorescence [z-score]": 0.515}
{"note": "A few entries again (study 3):"}
{"Sequence": "TTATAGAA", "E-score": 0.308}
{"Sequence": "CGTTACAA", "E-score": 0.176}
{"Sequence": "AAGTTCCG", "E-score": -0.0279}
{"Sequence": "AGCCGCGC", "E-score": -0.296}
{"Sequence": "GTCCGATA", "E-score": 0.0209}
{"Sequence": "AACGAGTT", "E-score": -0.0144}
{"Sequence": "TCGACAGA", "E-score": 0.101}
{"Sequence": "ATGCCGCC", "E-score": -0.262}
{"Sequence": "TGAGCACA", "E-score": 0.00975}
